# Assay results pooled from the literature.
# A part holds a random share of what one study measured. Values joined by “and” are separate records of one study, mostly repeats; a detail may differ.
# Sequence of UniProt P08581 (whole entry, looked up): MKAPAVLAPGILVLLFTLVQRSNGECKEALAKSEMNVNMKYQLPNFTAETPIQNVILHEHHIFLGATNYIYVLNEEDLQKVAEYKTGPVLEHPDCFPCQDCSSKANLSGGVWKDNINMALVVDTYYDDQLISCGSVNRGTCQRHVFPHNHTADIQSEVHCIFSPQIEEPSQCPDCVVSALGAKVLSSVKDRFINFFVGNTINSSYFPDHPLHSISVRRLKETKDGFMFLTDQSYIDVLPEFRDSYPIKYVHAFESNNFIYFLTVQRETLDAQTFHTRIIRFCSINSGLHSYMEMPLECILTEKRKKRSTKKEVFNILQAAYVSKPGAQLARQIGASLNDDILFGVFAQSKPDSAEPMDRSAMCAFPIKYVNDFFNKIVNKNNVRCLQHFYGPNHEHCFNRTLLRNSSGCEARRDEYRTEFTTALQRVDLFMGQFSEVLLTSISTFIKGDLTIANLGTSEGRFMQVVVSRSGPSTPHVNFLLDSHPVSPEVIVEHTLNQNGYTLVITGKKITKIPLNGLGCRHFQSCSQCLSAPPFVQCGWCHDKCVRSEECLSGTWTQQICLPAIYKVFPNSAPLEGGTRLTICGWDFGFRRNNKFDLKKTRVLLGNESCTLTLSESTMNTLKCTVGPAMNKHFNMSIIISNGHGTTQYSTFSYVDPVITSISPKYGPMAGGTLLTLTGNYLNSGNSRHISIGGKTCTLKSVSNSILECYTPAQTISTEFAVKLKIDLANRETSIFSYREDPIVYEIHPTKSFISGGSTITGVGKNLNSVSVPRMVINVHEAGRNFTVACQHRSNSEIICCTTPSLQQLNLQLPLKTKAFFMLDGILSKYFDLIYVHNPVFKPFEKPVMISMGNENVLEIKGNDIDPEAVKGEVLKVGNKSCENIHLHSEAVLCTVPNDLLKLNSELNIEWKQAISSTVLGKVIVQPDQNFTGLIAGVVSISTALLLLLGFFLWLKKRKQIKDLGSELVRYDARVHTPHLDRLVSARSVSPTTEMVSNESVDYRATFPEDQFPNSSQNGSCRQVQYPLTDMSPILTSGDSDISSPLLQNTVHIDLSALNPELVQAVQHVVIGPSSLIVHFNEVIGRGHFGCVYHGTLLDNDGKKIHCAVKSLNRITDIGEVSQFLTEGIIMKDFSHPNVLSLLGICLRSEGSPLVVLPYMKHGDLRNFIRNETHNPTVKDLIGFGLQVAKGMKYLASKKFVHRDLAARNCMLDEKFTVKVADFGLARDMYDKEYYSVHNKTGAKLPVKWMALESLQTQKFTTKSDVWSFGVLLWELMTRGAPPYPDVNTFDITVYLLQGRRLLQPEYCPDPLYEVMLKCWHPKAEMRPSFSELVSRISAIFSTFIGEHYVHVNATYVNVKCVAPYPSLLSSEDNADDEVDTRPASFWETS
# Sequence of UniProt Q15759 (whole entry, looked up): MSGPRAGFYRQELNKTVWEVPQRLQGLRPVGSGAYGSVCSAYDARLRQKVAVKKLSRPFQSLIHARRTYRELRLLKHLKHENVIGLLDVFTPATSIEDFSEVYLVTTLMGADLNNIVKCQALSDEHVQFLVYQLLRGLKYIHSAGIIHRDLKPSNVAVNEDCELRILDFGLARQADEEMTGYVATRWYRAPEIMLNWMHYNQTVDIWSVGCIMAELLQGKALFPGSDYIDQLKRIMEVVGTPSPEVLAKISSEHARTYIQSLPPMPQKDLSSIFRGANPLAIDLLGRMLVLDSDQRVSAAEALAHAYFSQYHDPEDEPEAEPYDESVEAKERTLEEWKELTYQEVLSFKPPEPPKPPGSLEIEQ
# Sequence of UniProt P06493 (whole entry, looked up): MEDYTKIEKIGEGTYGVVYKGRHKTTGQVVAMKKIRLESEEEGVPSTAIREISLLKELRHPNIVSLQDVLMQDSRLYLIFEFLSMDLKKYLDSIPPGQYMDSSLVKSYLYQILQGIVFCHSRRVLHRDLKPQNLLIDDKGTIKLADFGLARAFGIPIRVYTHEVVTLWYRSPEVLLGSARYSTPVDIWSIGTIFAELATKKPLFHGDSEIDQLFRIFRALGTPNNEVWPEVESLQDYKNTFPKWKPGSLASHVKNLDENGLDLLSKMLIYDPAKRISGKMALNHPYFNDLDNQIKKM
# Sequence of UniProt P49761 (whole entry, looked up): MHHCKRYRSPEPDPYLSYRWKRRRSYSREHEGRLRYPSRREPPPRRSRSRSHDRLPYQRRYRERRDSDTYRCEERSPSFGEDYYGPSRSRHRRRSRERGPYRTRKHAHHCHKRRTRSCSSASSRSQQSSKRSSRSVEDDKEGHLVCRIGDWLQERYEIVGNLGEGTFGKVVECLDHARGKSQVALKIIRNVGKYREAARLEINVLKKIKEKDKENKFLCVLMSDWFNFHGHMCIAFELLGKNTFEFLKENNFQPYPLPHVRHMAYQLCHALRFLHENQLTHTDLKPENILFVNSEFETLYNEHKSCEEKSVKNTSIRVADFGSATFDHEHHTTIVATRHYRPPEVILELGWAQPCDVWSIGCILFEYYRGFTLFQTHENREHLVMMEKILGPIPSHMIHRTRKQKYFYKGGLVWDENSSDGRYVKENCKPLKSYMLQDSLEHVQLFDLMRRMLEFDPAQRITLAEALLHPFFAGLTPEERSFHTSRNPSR

# Study 1
# Organism: Sarcocystis neurona
# Observed: parasite growth
# Concentration: 10 µM
# Time: 96 h
# Notes: second screen
# Reference: untreated
SMILES,log2 fold change
CC1COc2c(N3CCN(C)CC3)c(F)cc3c(=O)c(C(=O)O)cn1c23 (centres unmarked),0.35
NC(=O)c1ncn([C@@H]2O[C@H](CO)[C@@H](O)[C@H]2O)n1,0.53
COc1ccc(C2CNC(=O)C2)cc1OC1CCCC1 (centres unmarked),0.31
O=C(CCCN1CCC(O)(c2ccc(Cl)cc2)CC1)c1ccc(F)cc1,-0.79

# Study 2
# SMILES: O=C(O)[C@H]1[C@H](Cn2nnc3ccccc3c2=O)CC[C@@H]1C(=O)c1ccc(OCCC2CCOCC2)cc1
# Technique: competition with immobilised ligand
# Concentration: 1 µM
target,observed,remaining binding [%]
"MELK (Homo sapiens, UniProt Q14680)",cell-free assay,96
"MET (Homo sapiens, UniProt P08581)",cell-free assay,94
"PRKCH (Homo sapiens, UniProt P24723)",cell-free assay,89
"CDKL3 (Homo sapiens, UniProt Q8IVW4)",binding,87
"TEK (Homo sapiens, UniProt Q02763)",cell-free assay,86
"MARK1 (Homo sapiens, UniProt Q9P0L2)",cell-free assay,99
"PAK1 (Homo sapiens, UniProt Q13153)",cell-free assay,83

# Study 3
# SMILES: Cn1sc(=O)n(Cc2ccccc2)c1=O
# Observed: enzyme activity
# Mode: inhibitor
# Concentration: 0.5 µM
# Reference: control
target,remaining activity [%]
"NEK3 (Homo sapiens, UniProt P51956)",89.3
"DCLK2 (Homo sapiens, UniProt Q8N568)",98.5
"MAPK11 (Homo sapiens, UniProt Q15759)",97.2
"PNCK (Homo sapiens, UniProt Q6P2M8)",98.7
"DDR2 (Homo sapiens, UniProt Q16832)",102
"MARK4 (Homo sapiens, UniProt Q96L34)",85.1
"Cyclin-dependent kinase 1, with cyclin A (CDK1, Homo sapiens, UniProt P06493)",104
"MAP2K1 (Homo sapiens, UniProt Q02750)",83.8
"Cyclin-dependent kinase 9, with cyclin K (CDK9, Homo sapiens, UniProt P50750)",97.2
"CAMK4 (Homo sapiens, UniProt Q16566)",93.2
"MET (Homo sapiens, UniProt P08581)",64.2
"CLK4 (Homo sapiens, UniProt Q9HAZ1)",99.1
"MARK2 (Homo sapiens, UniProt Q7KZI7)",118
"CDC42BPB (Homo sapiens, UniProt Q9Y5S2)",96.4
"PRKG2 (Homo sapiens, UniProt Q13237)",108
"ROCK1 (Homo sapiens, UniProt Q13464)",94.6
"MINK1 (Homo sapiens, UniProt Q8N4C8)",88.7
"MAPK1 (Homo sapiens, UniProt P28482)",93.1
"RPS6KA4 (Homo sapiens, UniProt O75676)",99
"KDR (Homo sapiens, UniProt P35968)",89.4
"GRK4 (Homo sapiens, UniProt P32298)",101
"MAPK14 (Homo sapiens, UniProt Q16539)",101
"CLK3 (Homo sapiens, UniProt P49761)",83
"AKT2 (Homo sapiens, UniProt P31751)",99.2
"PLK3 (Homo sapiens, UniProt Q9H4B4)",99.1

# Study 4
# Target: DNA polymerase theta, ATPase domain (POLQ, Homo sapiens, UniProt O75417)
# Sequence of UniProt O75417 (whole entry, unmodified, looked up): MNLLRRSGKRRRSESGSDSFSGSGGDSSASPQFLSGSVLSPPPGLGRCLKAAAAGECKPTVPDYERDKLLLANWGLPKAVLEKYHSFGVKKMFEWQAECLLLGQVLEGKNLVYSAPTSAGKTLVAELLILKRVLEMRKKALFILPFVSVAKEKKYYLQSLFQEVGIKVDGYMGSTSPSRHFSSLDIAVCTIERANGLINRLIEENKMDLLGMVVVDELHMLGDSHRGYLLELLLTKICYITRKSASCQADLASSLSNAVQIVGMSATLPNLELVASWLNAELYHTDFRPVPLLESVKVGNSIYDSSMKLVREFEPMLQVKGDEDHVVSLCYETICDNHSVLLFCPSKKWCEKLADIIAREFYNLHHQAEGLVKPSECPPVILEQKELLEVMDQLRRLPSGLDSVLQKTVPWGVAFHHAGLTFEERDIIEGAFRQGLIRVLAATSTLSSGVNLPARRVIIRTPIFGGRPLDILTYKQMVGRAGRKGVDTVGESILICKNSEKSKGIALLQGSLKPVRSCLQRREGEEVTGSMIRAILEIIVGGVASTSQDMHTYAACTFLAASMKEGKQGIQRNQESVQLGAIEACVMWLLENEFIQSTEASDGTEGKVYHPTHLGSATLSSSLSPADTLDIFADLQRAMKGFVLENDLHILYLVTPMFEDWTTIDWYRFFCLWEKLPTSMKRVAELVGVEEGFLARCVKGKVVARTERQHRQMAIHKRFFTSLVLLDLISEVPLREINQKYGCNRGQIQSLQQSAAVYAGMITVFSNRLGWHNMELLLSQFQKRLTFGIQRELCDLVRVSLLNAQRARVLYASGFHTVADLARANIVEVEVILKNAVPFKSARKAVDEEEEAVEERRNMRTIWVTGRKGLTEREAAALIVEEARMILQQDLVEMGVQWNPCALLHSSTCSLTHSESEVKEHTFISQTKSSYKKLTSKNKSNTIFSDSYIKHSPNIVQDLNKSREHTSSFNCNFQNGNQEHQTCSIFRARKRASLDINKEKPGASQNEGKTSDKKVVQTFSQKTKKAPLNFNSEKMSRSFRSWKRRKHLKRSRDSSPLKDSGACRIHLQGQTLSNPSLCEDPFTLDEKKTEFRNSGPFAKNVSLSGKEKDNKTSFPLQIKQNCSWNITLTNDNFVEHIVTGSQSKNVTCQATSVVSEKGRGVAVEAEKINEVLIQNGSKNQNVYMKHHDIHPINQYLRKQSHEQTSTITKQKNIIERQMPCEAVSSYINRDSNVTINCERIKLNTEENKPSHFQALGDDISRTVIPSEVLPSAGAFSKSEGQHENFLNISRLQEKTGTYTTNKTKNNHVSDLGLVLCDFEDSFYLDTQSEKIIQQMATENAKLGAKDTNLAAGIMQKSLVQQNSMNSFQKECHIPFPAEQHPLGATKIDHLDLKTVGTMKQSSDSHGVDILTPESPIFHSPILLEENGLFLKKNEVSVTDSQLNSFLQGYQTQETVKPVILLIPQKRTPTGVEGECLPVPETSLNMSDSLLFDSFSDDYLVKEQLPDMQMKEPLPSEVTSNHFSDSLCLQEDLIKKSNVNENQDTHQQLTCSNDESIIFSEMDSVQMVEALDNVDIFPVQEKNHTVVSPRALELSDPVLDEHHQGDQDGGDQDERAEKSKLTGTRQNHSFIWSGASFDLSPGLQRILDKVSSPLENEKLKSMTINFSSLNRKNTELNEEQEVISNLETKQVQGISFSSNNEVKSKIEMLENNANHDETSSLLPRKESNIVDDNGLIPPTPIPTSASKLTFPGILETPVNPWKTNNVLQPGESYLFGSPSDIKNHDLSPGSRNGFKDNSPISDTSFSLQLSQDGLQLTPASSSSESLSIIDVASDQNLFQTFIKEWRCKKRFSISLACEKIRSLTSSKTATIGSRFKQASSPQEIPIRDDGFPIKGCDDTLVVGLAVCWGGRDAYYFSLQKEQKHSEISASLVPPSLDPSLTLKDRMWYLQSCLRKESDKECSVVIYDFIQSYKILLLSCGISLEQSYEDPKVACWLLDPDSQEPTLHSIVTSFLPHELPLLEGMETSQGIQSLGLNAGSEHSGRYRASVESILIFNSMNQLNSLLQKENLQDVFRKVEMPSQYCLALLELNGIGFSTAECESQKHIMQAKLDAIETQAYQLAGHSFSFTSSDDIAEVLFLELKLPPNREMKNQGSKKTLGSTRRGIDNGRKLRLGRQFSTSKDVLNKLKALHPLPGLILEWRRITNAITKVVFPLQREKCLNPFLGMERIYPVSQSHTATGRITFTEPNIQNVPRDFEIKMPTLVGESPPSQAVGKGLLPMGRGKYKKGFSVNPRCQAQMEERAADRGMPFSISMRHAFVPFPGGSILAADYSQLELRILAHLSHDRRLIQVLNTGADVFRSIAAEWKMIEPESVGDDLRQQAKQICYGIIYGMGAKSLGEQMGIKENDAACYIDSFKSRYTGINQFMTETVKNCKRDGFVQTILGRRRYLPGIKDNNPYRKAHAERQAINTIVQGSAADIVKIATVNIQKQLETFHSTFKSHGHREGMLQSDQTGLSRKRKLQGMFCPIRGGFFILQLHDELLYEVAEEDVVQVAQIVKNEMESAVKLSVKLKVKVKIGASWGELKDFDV
# Observed: enzyme activity
# Mode: inhibitor
# Concentration: 77 µM
# Reference: untreated
Structure (SMILES),remaining activity
O=c1c(O)c(-c2ccc(O)cc2)oc2cc(O)cc(O)c12,89.6% and 102%
CCCCn1c2ccc(O)cc2c2c3c(c(-c4ccccc4Cl)cc21)C(=O)NC3=O,98.3%
O=C(O)c1ccc(N2C(=O)/C(=C\c3ccc(-c4ccc([N+](=O)[O-])cc4)o3)C=C2c2ccccc2)cc1,81.3%
Nc1nc(CC(=O)Nc2ccc(CCNC[C@H](O)c3ccccc3)cc2)cs1,104%
CCOC(=O)C1=C(C)NC(C)=C(C(=O)OCC)C1c1c(F)c(F)c(F)c(F)c1F,106%

# Study 5
# Structure (SMILES): CN1CCN(C(=O)c2ccc(NC(=O)Nc3ccc(N(C)c4ccnc(Nc5ccc(CS(C)(=O)=O)cc5)n4)cc3)cc2)CC1
# Observed: binding
# Concentration: 1 µM
target,technique,remaining binding [%]
"VRK2 (Homo sapiens, UniProt Q86Y07)",competition with immobilised ligand,93
"PRKAA1 (Homo sapiens, UniProt Q13131)",competition with immobilised ligand,82
"PIP4K2C (Homo sapiens, UniProt Q8TBX8)",,0.9
"FGFR3 (Homo sapiens, UniProt P22607, G697C)",,100
"Aurora kinase C (AURKC, Homo sapiens, UniProt Q9UQB9)",competition with immobilised ligand,0.2

# Study 6
# Compound: Cn1cnc(Cn2ccc3ccc(CNCc4[nH]c5ccccc5c4[C@H]4NC(=O)c5ccc(O)cc54)cc32)c1
# Target: GTPase KRas (KRAS, Homo sapiens, UniProt P01116, G12C)
# Observed: binding
# Mode: competitor
# Technique: NanoBRET
# Cells: HEK293
# Reference: vehicle and 20 µM BI compound
concentration,time,normalized BRET
27.4 nM,3 h,114% and 126% and 104% and 123%
9.14 nM,1 h,88% and 99% and 92.7% and 90.5%
9.14 nM,0.5 h,94.7% and 85.1% and 98.3% and 97%
2.22 µM,4 h,17% and 16.7% and 13.9% and 12.4%

# Some of these lines once more (study 3):
target,remaining activity [%]
"PRKG2 (Homo sapiens, UniProt Q13237)",108
"ROCK1 (Homo sapiens, UniProt Q13464)",94.6
"MINK1 (Homo sapiens, UniProt Q8N4C8)",88.7
